Results gathered from unrelated publications.
Protocols differ between the studies behind these lines.
Target: Mitogen-activated protein kinase 11 (MAPK11, Homo sapiens, UniProt Q15759)
Sequence of UniProt Q15759 (whole entry, unmodified, looked up): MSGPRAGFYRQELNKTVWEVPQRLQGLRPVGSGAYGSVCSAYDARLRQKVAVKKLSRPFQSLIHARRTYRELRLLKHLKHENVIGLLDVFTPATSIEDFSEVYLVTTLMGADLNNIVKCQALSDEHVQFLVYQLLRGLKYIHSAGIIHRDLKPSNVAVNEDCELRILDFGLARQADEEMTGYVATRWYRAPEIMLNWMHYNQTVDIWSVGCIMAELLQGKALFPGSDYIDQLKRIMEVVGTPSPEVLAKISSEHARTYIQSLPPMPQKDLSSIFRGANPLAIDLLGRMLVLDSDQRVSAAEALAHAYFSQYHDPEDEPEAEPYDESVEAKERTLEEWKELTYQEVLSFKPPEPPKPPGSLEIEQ

The remaining activity of `Nc1nc(Nc2ccccc2)sc1C(=O)c1ccccc1` is reported as 47% (enzyme activity, inhibitor; 10 µM).
For `Cc1cccc(-c2ccc3nc(NC(=O)C4CCCCC4)nn3c2)c1`, the remaining activity was 82% (enzyme activity, Dundee kinase panel; 10 µM).
For `Cc1cccc(O[C@H]2CCC[C@@H](C(C)CNCc3ccncc3)C2)c1` (relative stereo), the inhibition was -5% (enzyme activity, inhibitor; 10 µM).
For `COc1ccc(NC(=O)Nc2ccc3c(c2)C(=O)N(C(C)CO)CC(C)C(CN(C)Cc2ccc4c(c2)OCO4)O3)cc1` (stereo not drawn), the remaining activity was 82% (kinase activity, KinaseProfiler; 0.03 µM, species human; relative to: control).
`CNC(=O)C[C@H](Cc1ccc(C#N)cc1)NC(=O)c1cc(-c2ccc(CN[C@H](C)c3ccc(C)cc3)o2)ccc1Cl` — result for “activity vs control”: 93% (enzyme activity, inhibitor; 1 µM).
The remaining binding of `CN1CCN(Cc2ccc(NC(=O)c3cccc(C#Cc4cnc(N)c5ncccc45)c3)cc2C(F)(F)F)CC1` is reported as 12% (cell-free assay, competition with immobilised ligand; 0.5 µM).
With `O=C=[N][Ru-4]123([n]4c5ccc(O)cc5c5c6c(c7cc(F)c[n+]1c7c54)C(=O)NC6=O)[S+]1CC[S+]2CC[S+]3CC1` (stereo not drawn) the remaining activity was 106% (enzyme activity; 100 nM, human enzyme, with: 10 µM ATP; relative to: untreated).
With `COc1ccc(C(=O)/C=C/c2ccccc2-c2c[nH]c3ccc(C#N)cc23)c(O)c1` the inhibition was 2% (enzyme activity, inhibitor; 20 µM).
`C=CC(=O)N1CCc2ccc(-n3c(=O)ccc4cnc5ccc(-c6cnn(C)c6)cc5c43)cc21` has a remaining binding of 86% (KINOMEscan; 1 µM; relative to: DMSO control).
`O=C(Cc1ccc(OCc2ccccc2)cc1)NC1(C(=O)O)CCN(C(=O)c2ccc(-c3cccc(Cl)c3)cc2)CC1` — result for “activity vs control”: 108% (enzyme activity, inhibitor; 10 µM).
For `NC(=O)[C@@H](O)C[C@H]1CCc2sc3ncnc(O[C@H]4CC[C@H](N5CCOCC5)CC4)c3c21`, the inhibition was 4% (enzyme activity, inhibitor; 10 µM).
The inhibition of `CCn1cc(C(=O)O)c(=O)c2c(N)c(F)c(NC3CCCCC3)cc21` is reported as -0.4% (kinase activity; 0.1 µM, with: ATP at Km).
For `Cc1nc2c(F)cc(-c3nc(Nc4ccc(CNC(=O)CCCCCCC(=O)NO)cc4)ncc3F)cc2n1C(C)C`, the inhibition was 26% (enzyme activity, inhibitor; 1 µM).
The remaining binding of `Nc1ncc2c(n1)-c1c([nH]c3ccc(C4=CCOCC4)cc13)CCC2` is reported as 100% (binding, competition with immobilised ligand; 1 µM).
`COc1cc(Nc2nc(C)cc(-c3cnn4nc(OC)ccc34)n2)cc(C(F)(F)F)c1` has a remaining binding of 100% (KINOMEscan; 1 µM, p38-beta; relative to: DMSO).

Excerpt of the above:
The remaining binding of `Nc1ncc2c(n1)-c1c([nH]c3ccc(C4=CCOCC4)cc13)CCC2` is reported as 100% (binding, competition with immobilised ligand; 1 µM).
`COc1cc(Nc2nc(C)cc(-c3cnn4nc(OC)ccc34)n2)cc(C(F)(F)F)c1` has a remaining binding of 100% (KINOMEscan; 1 µM, p38-beta; relative to: DMSO).
